# Measured values pooled from the literature.
# Every numbered part comes from another study and shows a few of its results, in no order. Substitutions count along the parent as printed.

# Series 1
# Target: Histone acetyltransferase KAT6A, both winged helices, GST fusion (KAT6A, Homo sapiens, UniProt Q92794, residues 1-181)
# Method: protein binding microarray
# Molecule type: double-stranded DNA, one strand shown
# Medium: in vitro
# Tested at: not given
# Setting: 8-mer, flanks averaged, mean of 2 arrays, mostly near background
# Reference: not given
# Reading: higher = stronger binding
# Residues (chain): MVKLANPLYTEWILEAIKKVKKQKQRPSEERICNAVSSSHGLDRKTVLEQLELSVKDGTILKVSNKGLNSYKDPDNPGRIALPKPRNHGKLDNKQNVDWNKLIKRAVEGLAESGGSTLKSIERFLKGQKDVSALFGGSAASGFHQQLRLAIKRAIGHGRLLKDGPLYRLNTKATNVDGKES
Oligonucleotide,E-score
ATGAGGCC,-0.0158
AACACGCT,0.131
GATCAAGA,0.0515
CACGGTGA,0.0791
CTTGCGAA,0.11
CGGGCCGA,0.22
GCCGCTCA,0.308
GCCACCAA,-0.0386

# Series 2
# Target: CCNE2, cyclin fold, Cln2 fusion (human)
# Method: yeast growth competition, sequencing
# Medium: yeast
# Setting: strong parent motif
# Reference: not given
# Reading: higher = stronger binding
# Starting sequence: BRCA2 docking peptide (human); PSIKRNLLNEFDR; partner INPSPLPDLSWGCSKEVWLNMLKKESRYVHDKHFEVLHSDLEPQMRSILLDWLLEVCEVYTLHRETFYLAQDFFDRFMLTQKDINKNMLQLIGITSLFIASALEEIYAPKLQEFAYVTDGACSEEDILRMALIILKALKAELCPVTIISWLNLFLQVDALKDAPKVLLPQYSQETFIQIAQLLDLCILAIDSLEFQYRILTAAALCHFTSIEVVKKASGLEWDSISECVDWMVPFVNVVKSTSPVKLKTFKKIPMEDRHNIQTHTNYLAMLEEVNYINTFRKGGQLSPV
Substitution,normalised enrichment score
F11I,1.28
L7E,-0.28
R5M,0.786
L7R,0.562
K4D,0.198
R13W,2.07
E10L,1.11

# Series 3
# Target: Prothrombin, mature alpha-thrombin (F2, Homo sapiens, UniProt P00734)
# Method: aptamer microarray, sandwich
# Molecule type: DNA with 2'F-ANA
# Medium: in vitro
# Tested at: 200 nM
# Setting: whole 15-mer aptamer, many near background
# Added: Cy3 exosite-II aptamer, 400 nM
# Reading: higher = stronger binding
# Oligonucleotide: GGTTGGTGTGGTTGG
Modification,mean fluorescence intensity
2'F-ANA at 1 2 5 6 7 8 10 15,81.5 a.u.
2'F-ANA at 1 2 3 4 6 10 11 12 13 14,94.9 a.u.
2'F-ANA at 1 2 3 5 10 13,55 a.u.
2'F-ANA at 1 2 5 6 7 9 11 15,56.5 a.u.
2'F-ANA at 1 4 5 6 10 11 15,51.9 a.u.
2'F-ANA at 1 2 3 4 5 6 8 9 10 12 13,140 a.u.

# Further values, each from its own experiment
Substance,target,assay,test system,conditions,scale,endpoint,result
"PhoQ, residues 284 288 289 292 302 303 ASSHFY","PhoP, residues 12 14 15 18 19 AGCRL (Escherichia coli, UniProt P23836)","Sort-seq, item: YFP reporter",E. coli,"PhoQ-PhoP variant library, added: 10 µM Mg2+","reference: high Mg2+ state, higher = stronger signaling",fold induction,3.94

# Excerpt of the above (series 1):
Oligonucleotide,E-score
AACACGCT,0.131
GATCAAGA,0.0515
CACGGTGA,0.0791
